Experimental data gathered from unrelated publications.
Compare with care: the assays were run in different laboratories. ± gives the spread as reported. Values after ≈ are worked out from the molar mass of the structure shown.

SMILES | test | test system | setting | how to read | measurement | value
CCc1ccc(CC/C=C/c2ccc3c(c2)C(=O)CC3)cc1 | – | Sprague-Dawley rat, female | oral, 30 mg/kg/day, 14 days | – | Calcium | 2.39 mM
CCC[C@@](N)(CO)CCc1ccc(OCCCCCC(C)C)cc1 | – | dog | oral, 5 mg/kg | – | half-life | 19.1 h
Cn1cc(-c2nc(N[C@@H]3CCCC[C@@H]3N)c(F)c3c2C(=O)NC3)cn1 | measured: Melaena | patients with relapsed or refractory AML | oral, dose not given, all doses | – | hemorrhagic adverse events | 7%
C1=Cc2nc1cc1ccc([n-]1)c(-c1ccccc1)c1nc(cc3ccc([n-]3)c2-c2ccccc2)C=C1.CC(=O)[O-].[Mn+3] | LC-MS/MS | Sprague-Dawley rat, plasma | oral gavage, dose not given, 240 min, individual rat Rat1 | – | plasma concentration | 0.044 µg/mL
O=C1Nc2cc3[nH]nc(-c4ccncc4)c3cc2CN1Cc1ccccc1 | CTCAE v4.03 | advanced solid tumour patients | intravenous, 0.45 mg/kg, schedules 1/2 | – | patients with acneiform dermatitis | 0%
C[C@]1(CO)Cc2ncn(-c3ccc(C#N)c(Cl)c3)c2C(=O)O1 | – | human, plasma | 2 mg single dose, geometric mean | – | half-life | 4.8 h
Nc1ncc(-c2nc(N3CCOCC3)nc(N3CCOCC3)n2)c(C(F)F)n1 | shake flask | buffer | 24 h, pH 1.2, 25 °C | – | thermodynamic solubility | 34.5 µM (≈ 13.6 µg/mL)
C[C@@H]1OC(=O)NN=C1c1ccc(-c2ccc(F)cc2)c(C(F)(F)F)c1 | phase I trial, measured: Diarrhoea worst grade 1 | human patients | dose not given, all dose groups | – | patients with adverse event | 20%
C[C@@H]1NC(=O)[C@H](CCCCNC(=O)CO/N=C/C(=O)NCCCC[C@@H]2NC(=O)[C@@H](Cc3ccccc3)NC(=O)[C@H](CC(=O)O)NC(=O)CNC(=O)[C@H](CCCNC(=N)N)NC2=O)NC(=O)CNC(=O)[C@@H]2CCCN2C(=O)[C@H](CCCCNC(=O)CO/N=C/C(=O)NCCCC[C@@H]2NC(=O)[C@@H](Cc3ccccc3)NC(=O)[C@H](CC(=O)O)NC(=O)CNC(=O)[C@H](CCCNC(=N)N)NC2=O)NC(=O)[C@H](CCCCNC(=O)CCNC(=O)CCNC(=O)CCNC(=O)[C@H](CCCCN)NC(=O)[C@H](Cc2ccccc2)NC(=O)CNC(=O)CN2CCCNCCNCCCNCC2)NC(=O)[C@H](CCCCNC(=O)CO/N=C/C(=O)NCCCC[C@@H]2NC(=O)[C@@H](Cc3ccccc3)NC(=O)[C@H](CC(=O)O)NC(=O)CNC(=O)[C@H](CCCNC(=N)N)NC2=O)NC(=O)CNC(=O)[C@@H]2CCCN2C(=O)[C@H](CCCCNC(=O)CO/N=C/C(=O)NCCCC[C@@H]2NC(=O)[C@@H](Cc3ccccc3)NC(=O)[C@H](CC(=O)O)NC(=O)CNC(=O)[C@H](CCCNC(=N)N)NC2=O)NC1=O [copper-64 labelled] | biodistribution after PET | mouse, U-87 MG tumour xenograft, blood | intravenous, 24 h | – | tissue uptake | 0.1 ± 0.02 %ID/g
CC(C)(O)c1cc(Nc2cc(Oc3cn(C4CC4)nc3C3CCOCC3)ccn2)ccn1 | Anemia | advanced cancer patients, dose escalation | oral, dose not given, 3 weeks on/1 off, all causality grade ≥3 | – | treatment-emergent adverse events | 0%
CCN1[C@@H](C(=O)NC23CCC(C(=O)O)(CC2)CC3)[C@H](c2cccc(Cl)c2F)[C@]2(C(=O)Nc3cc(Cl)ccc32)C12CCCCC2 | – | patients with advanced solid tumours | oral, 150 mg | – | ALT elevation incidence | 12.5%
COc1cc2c(Oc3ccc4[nH]c(C)cc4c3F)ccnc2cc1OCC1(N)CC1 | – | paediatric refractory sarcoma patients | 10 mg | – | grade 1-2 T-wave abnormality | 50%
O=S(=O)(Nc1ccccc1)c1ccc(NC(=S)Nc2ccccc2)cc1 | – | male mice, heart | oral, 20 mg/kg daily 14 days | relative to: body weight | relative organ weight | 0.5%
CC[C@H](C)[C@@H]1NC(=O)[C@@H]2CSSC[C@H](NC(=O)[C@H](CCCNC(=N)N)NC(=O)[C@@H]3CSSC[C@H](NC1=O)C(=O)N[C@@H]([C@@H](C)O)C(=O)N[C@@H](CCCNC(=N)N)C(=O)NCC(=O)N[C@@H](Cc1ccccc1)C(=O)N3)C(=O)N[C@@H](CC(C)C)C(=O)N[C@H]1CSSC[C@H](NC(=O)[C@H](C(C)C)NC(=O)CNC(=O)[C@H](CCCNC(=N)N)NC(=O)[C@H](CCCNC(=N)N)NC1=O)C(=O)N[C@@H](CCCNC(=N)N)C(=O)N2 | – | Sprague-Dawley rats, male, liver | 20 mg/kg | direction not given | hepatocyte necrosis score | 1 to 3
Cn1c(-c2ccc(C(N)=O)cc2F)nnc1C(C)(C)Oc1c(F)cc(Cl)cc1F | – | human | oral, 10 mg, single ascending dose | – | medical device site reaction TEAE | 0%
COC[C@@H](CC(C)C)NC(=O)c1ccc(C)c(C)c1 | – | Hsd:ICR (CD-1) mouse, male, bone marrow | oral, 500 mg/kg, 24 h | – | PCE to total erythrocyte ratio | 0.485
COc1ccc2nc3cc(Cl)ccc3c(Nc3cc(CN4CCCC4)c(O)c(CN4CCCC4)c3)c2n1 | – | mouse, blood | intraperitoneal, 14 mg/kg | – | ALT activity | 0.55 U/L
C[C@@H](NC(=O)N1C(=O)[C@H](Cc2ccnc(N)c2)[C@H]1C(=O)O)C1CCCCC1 | – | healthy adult Chinese volunteers | continuous intravenous infusion, 0.6 mg/kg/h, 5-day infusion, CTCAE 5.0 grading | – | incidence of AEs leading to discontinuation | 12.5%
N=C(N)NCCC[C@@H](NC(=O)[C@@H](N)Cc1ccccc1)C(=O)N[C@@H](Cc1ccccc1)C(=O)N[C@@H](CCCCN)C(N)=O | LC-MS | human | 25 mg, 11.83 h | – | mean fraction excreted in urine | 5.83%
C[C@]1(O)C[C@@](N)(c2ccc(-c3nc4n(c3-c3ccccc3)COc3ccncc3-4)cc2)C1 | – | human, advanced or metastatic solid tumours | intermittent, dose escalation total, any grade | – | patients with Diarrhea TEAE | 14.3%
CO[C@H]1C[C@@H]2CC[C@@H](C)[C@@](O)(O2)C(=O)C(=O)N2CCCC[C@H]2C(=O)O[C@H]([C@H](C)C[C@@H]2CC[C@@H](OC(=O)NCCOCCOCCOCCOCCOCCOCCOCCOCCC(=O)N3CCc4cc(Cn5nc(-c6ccc7oc(N)nc7c6)c6c(N)ncnc65)ccc4C3)[C@H](OC)C2)C[C@@H](O)[C@H](C)/C=C(\C)[C@@H](O)[C@@H](OC)C(=O)[C@H](C)C[C@H](C)/C=C/C=C/C=C/1C | phase 1 dose escalation, measured: headache | advanced solid tumour patients | intravenous, 10 mg weekly, grade ≥3 | – | TRAE incidence | 0%
O=C(Nc1ccccc1)C1CCN(C(=O)Oc2cccnc2)CC1 | adverse event reporting | healthy women | oral, 20 mg, 7 days | – | subjects with Overall adverse event | 85.7%
Cc1ccc(F)c2cc(C(=O)N[C@@H]3CCC[C@H](N4CC[C@H](N(C)S(C)(=O)=O)C4)C3)[nH]c12 | – | CD1 mouse, plasma | intravenous, 1 mg/kg, 4 h | – | plasma concentration | 0.0188 µg/mL
CC(C)[C@@H]1NC(=O)CNC(=O)[C@H](CC(N)=O)NC(=O)[C@H](CCCNC(=N)N)NC(=O)[C@H](Cc2ccc(O)cc2)NC(=O)[C@H](C(C)C)NC(=O)[C@@H](NC(=O)[C@@H](NC(=O)[C@H](CC(N)=O)NC(=O)[C@H](Cc2c[nH]c3ccccc23)NC(=O)[C@H](C)NC(=O)[C@H](Cc2ccccc2)NC(=O)CN)C(C)C)CSSC[C@@H](C(=O)N[C@@H](Cc2cnc[nH]2)C(=O)N[C@@H](CCCNC(=N)N)C(=O)N[C@@H](CCCNC(=N)N)C(=O)N[C@@H](C)C(=O)N[C@@H](CC(N)=O)C(N)=O)NC(=O)[C@H](C(C)C)NC(=O)[C@H](CCCNC(=N)N)NC1=O | – | ICR mice, blood | intraperitoneal, 5 mg/kg, day 5 | – | lymphocytes | 76.46 ± 0.69%
